Measured values pooled from the literature.
Every numbered part comes from another study and shows a few of its results, in no order. Substitutions count along the parent as printed.

Set 1
Target: Sal-like protein 4, full length isoform A (SALL4, Homo sapiens, UniProt Q9UJQ4, residues 1-1053)
UniProt Q9UJQ4, sequence (whole entry, looked up): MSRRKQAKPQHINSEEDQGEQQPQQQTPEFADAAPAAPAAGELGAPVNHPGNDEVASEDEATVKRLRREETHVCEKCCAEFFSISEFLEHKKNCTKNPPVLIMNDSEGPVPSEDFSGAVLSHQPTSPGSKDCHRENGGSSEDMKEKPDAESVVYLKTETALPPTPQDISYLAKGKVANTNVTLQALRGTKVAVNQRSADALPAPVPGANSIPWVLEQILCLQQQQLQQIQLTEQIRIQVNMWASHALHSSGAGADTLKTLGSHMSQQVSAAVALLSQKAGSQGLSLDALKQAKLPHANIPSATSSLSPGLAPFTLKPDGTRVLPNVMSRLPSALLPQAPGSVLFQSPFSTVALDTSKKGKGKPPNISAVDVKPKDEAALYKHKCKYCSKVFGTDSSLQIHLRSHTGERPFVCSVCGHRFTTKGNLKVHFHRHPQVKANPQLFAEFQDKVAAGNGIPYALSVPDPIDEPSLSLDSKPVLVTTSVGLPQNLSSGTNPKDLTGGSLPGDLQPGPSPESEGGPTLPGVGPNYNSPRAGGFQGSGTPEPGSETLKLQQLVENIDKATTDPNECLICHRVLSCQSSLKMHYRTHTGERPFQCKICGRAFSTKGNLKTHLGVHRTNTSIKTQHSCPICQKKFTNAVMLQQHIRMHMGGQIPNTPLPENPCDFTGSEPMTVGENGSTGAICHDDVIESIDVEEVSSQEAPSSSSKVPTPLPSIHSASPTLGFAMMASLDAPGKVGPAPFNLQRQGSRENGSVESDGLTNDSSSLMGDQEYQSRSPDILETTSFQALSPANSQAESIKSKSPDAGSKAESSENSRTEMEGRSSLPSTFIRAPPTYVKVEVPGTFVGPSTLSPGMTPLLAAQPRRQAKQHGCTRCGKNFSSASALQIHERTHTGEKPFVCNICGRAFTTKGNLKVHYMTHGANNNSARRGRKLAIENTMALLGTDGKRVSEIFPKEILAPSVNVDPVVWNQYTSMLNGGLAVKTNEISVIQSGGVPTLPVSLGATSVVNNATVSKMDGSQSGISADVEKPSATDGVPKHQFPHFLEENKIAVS
Technique: universal PBM
Form: double-stranded DNA, one strand shown
Medium: in vitro
Concentration: 600 nM
Setting: 8-mer, flanks averaged, mean of replicates
Reading: higher = stronger binding
The E-score of `ATCTCTCC` is reported as -0.0152.
The E-score of `CCCTGCAA` is reported as -0.0412.
`GCGCGCTA` has an E-score of -0.105.
`TTAGGAAA` gave an E-score of 0.242.
The E-score of `TACATCCA` is reported as 0.247.
With `AGAAAGAT` the E-score was 0.168.
`CGTCCGAG` gave an E-score of -0.238.
With `TCGACCAA` the E-score was -0.0478.

Set 2
Target: FOSL1, bZIP domain (human)
Technique: DHFR protein complementation
Medium: yeast
Setting: single substitutions, most at no-binding floor
Relative to: wild-type JUN-FOS pair
Reading: higher = stronger binding
Parent: JUN, bZIP domain (human); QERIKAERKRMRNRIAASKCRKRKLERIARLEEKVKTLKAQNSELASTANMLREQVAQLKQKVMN; partner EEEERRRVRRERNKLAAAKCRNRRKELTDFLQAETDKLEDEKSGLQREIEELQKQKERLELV
`A29V` gave a binding fitness of -0.774 natural log.
`Q41R` gave a binding fitness of -0.699 natural log.
`K36D` has a binding fitness of -0.481 natural log.
For `L52K`, the binding fitness was -1.23 natural log.
`S47V` gave a binding fitness of -0.256 natural log.
The binding fitness of `A46T` is reported as -0.408 natural log.
The binding fitness of `K34Q` is reported as -0.56 natural log.
The binding fitness of `N42E` is reported as -1.31 natural log.

Set 3
Target: PABPC1L2, full length, GST fusion (mouse, UniProt A0ABA7IW68)
Technique: RNAcompete
Form: RNA
Medium: in vitro
Concentration: 20 nM
Setting: 7-mer, probes averaged, single round
Relative to: mean of 7-mers
Reading: higher = stronger binding
Construct (chain): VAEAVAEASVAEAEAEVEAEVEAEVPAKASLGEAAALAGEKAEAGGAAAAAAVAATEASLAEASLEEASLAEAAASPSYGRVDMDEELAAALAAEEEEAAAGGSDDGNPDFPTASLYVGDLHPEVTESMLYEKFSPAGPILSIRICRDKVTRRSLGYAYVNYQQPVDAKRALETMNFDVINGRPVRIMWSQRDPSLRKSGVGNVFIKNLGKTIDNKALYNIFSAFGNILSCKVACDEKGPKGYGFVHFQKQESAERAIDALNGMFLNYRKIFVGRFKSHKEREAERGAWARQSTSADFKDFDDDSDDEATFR
With `GUAUGCC` the 7-mer Z-score was -0.26.
`CCUAGCU` has a 7-mer Z-score of -0.373.
With `GAAACGU` the 7-mer Z-score was -0.0627.
The 7-mer Z-score of `UUCUAGC` is reported as -0.347.
With `CUUCAUG` the 7-mer Z-score was -0.331.
With `UCGCCUU` the 7-mer Z-score was -0.405.
`CAUGGUA` gave a 7-mer Z-score of 0.0551.
For `GUGCCCU`, the 7-mer Z-score was -0.209.

Mixed results
Parent: viral docking peptide; KKAKRRLFTISDS
`KKAKKRLFTISDS [R5K]` — result for “normalised enrichment score”: 0.169 (CCND1, cyclin fold, Cln2 fusion (human); yeast growth competition, sequencing; yeast; weak parent motif; relative to: not given, higher = stronger binding).

For quick reference, copied from above (set 1):
With `AGAAAGAT` the E-score was 0.168.
`CGTCCGAG` gave an E-score of -0.238.
